Measured values from different studies.
Lines come from different studies, so protocols differ. Values joined by “and” are separate records of one study, mostly repeats; a detail may differ.
Target: Serine/threonine-protein kinase PAK 2 (PAK2, Homo sapiens, UniProt Q13177)

| SMILES | assay | system | setting | scale | measurement | result |
| --- | --- | --- | --- | --- | --- | --- |
| COc1ccc(C(=O)/C=C/c2ccccc2-c2c[nH]c3ccc(C#N)cc23)c(O)c1 | enzyme activity, inhibitor | – | 20 µM | – | inhibition | 0% |
| Cc1cnc2nc1Nc1cccc(c1)COC/C=C/COCc1cc(ccc1OCCN1CCOCC1)N2 | binding | – | 0.1 µM | – | remaining binding | 91% |
| COCC12C(=O)NC3C4(C(OC)CC1O)C1CC5(O)C(OC)C(O)C(OC(C)=O)(C1C5OC(=O)c1ccccc1)C3(O)C(OC)C24 (stereo not shown) | kinase activity, inhibitor, ProQinase kinase profiling | – | 25 µM | baseline: control | remaining activity | 97% and 82% |
| O=C(Cc1ccc(OCc2ccccc2)cc1)NC1(C(=O)O)CCN(C(=O)c2ccc(-c3cccc(Cl)c3)cc2)CC1 | enzyme activity, inhibitor | – | 10 µM | – | activity vs control | 98% |
| C=CC(=O)Nc1cccc(-c2cnc3[nH]cc(C(=O)NC(C)(C)C)c3n2)c1 | enzyme activity, inhibitor | – | 0.1 µM | – | inhibition | 3% |
| O=C=[N][Ru-4]123([n]4c5ccc(O)cc5c5c6c(c7cc(F)c[n+]1c7c54)C(=O)NC6=O)[S+]1CC[S+]2CC[S+]3CC1 (stereo not shown) | enzyme activity | – | 100 nM, human enzyme, together with: 10 µM ATP | baseline: untreated | remaining activity | 91% |
| Cc1cccc(O[C@H]2CCC[C@@H](C(C)CNCc3ccncc3)C2)c1 (relative stereo) | enzyme activity, inhibitor | – | 10 µM | – | inhibition | -3% |
| CN1CCN(Cc2ccc(NC(=O)c3cccc(C#Cc4cnc(N)c5ncccc45)c3)cc2C(F)(F)F)CC1 | cell-free assay, competition with immobilised ligand | – | 50 nM | – | remaining binding | 86% |
| CN1CCN(Cc2ccc(-c3ccc(CO[C@H]4CCC[C@@H]4NC(=O)c4cc(-c5cnn(C)c5)cnc4N)cc3)cc2)CC1 | enzyme activity, inhibitor | – | 0.1 µM | – | inhibition | 8% |
| C=C1CCCCCCCCCC(CO)C1=O (stereo not shown) | cell-free assay, competition with immobilised ligand | – | 10 µM | – | remaining binding | 100% |
| CCn1cc(C(=O)O)c(=O)c2c(N)c(F)c(NC3CCCCC3)cc21 | kinase activity | – | 0.1 µM, together with: ATP at Km | – | inhibition | 6.4% |
| O=C(O)CCC(=O)c1cccc(NS(=O)(=O)c2c[nH]c3ncccc23)c1 | kinase activity, radiometric | – | 10 µM | – | remaining activity | 97% |
| COc1ccc(O)cc1-c1c[nH]c2ncc(-c3cncc(C(=O)N(C)C)c3)cc12 | binding, competition with immobilised ligand | – | 0.2 µM | – | inhibition | -1.02% |
| CN1CC[C@@H](COc2cnc(C#N)cc2-c2ccn3nc(NC(=O)C4CC4)cc3c2)C1 | enzyme activity, inhibitor | – | 1 µM | – | inhibition | 19% |
| Nc1ncc2c(n1)-c1c([nH]c3ccc(C4=CCOCC4)cc13)CCC2 | binding, competition with immobilised ligand | – | 1 µM | – | remaining binding | 94% |
| COc1c(Cl)cccc1Nc1c(-c2ccncc2C#C[C@@]2(C)CCCN2C(=O)/C=C/CN(C)C)[nH]c2c1C(=O)NCC2 | cell-free assay, competition with immobilised ligand | – | 3 µM | – | remaining binding | 85% |
| NC(=O)[C@@H](O)C[C@H]1CCc2sc3ncnc(O[C@H]4CC[C@H](N5CCOCC5)CC4)c3c21 | enzyme activity, inhibitor | – | 10 µM | – | inhibition | 2% |
| CS(=O)(=O)Nc1cccc(-c2csc3cnc(Nc4ccc(N5CCN(CCCCCOc6cccc7c6C(=O)N(C6CCC(=O)NC6=O)C7=O)CC5)cc4)nc23)c1 (stereo not shown) | probe labelling, inhibitor, KiNativ chemoproteomics | MOLT-4 | 1 µM | – | inhibition | 25.1% |
| COc1ccc(NC(=O)Nc2ccc3c(c2)C(=O)N(C(C)CO)CC(C)C(CN(C)Cc2ccc4c(c2)OCO4)O3)cc1 (stereo not shown) | binding, competition with immobilised ligand | – | 10 µM | – | remaining binding | 69% |
| COc1cc(Nc2nccc(-c3cnn4nc(OC)ccc34)n2)cc(C(F)(F)F)c1 | binding, competition with immobilised ligand | – | 1 µM | – | remaining binding | 100% |
| CNC(=O)C1CCN(c2cc(C)c(F)cc2NC(=O)c2ccc(-c3cc(O)ccc3C)c(C)c2)CC1 | binding, competition with immobilised ligand | – | 1 µM | – | remaining binding | 52% |
| Nc1ncc(-c2cc(-c3cnn(CC(F)(F)F)c3)ncc2F)nc1C(=O)NC1CNCC(F)C1 (stereo not shown) | enzyme activity | – | 1 µM | baseline: DMSO control | remaining activity | 96.4% |
